Measured values gathered from unrelated publications.
A part holds a random share of what one study measured. Substitutions count along the parent as printed.

Series 1 — method: aptamer microarray, sandwich; molecule type: DNA with 2'F-ANA; medium: in vitro; tested at: 200 nM; together with: Cy3 exosite-II aptamer, 400 nM; direction: higher = stronger binding; quantity: mean fluorescence intensity; sequence: GGTTGGTGTGGTTGG
Target: Prothrombin, mature alpha-thrombin (F2, Homo sapiens, UniProt P00734)
Notes: whole 15-mer aptamer, many near background
2'F-ANA at 3 4 12 15: 1060 a.u.
2'F-ANA at 1 2 3 4 6 7 9 13 15: 107 a.u.
2'F-ANA at 1 4 5 6 8 11 12: 84 a.u.
2'F-ANA at 1 4 6 7 8 11 13: 90.8 a.u.
2'F-ANA at 2 3 4 5 8 9 10 12: 59.7 a.u.
2'F-ANA at 1 2 5 6 7 10 11 12 14 15: 49.6 a.u.
2'F-ANA at 1 2 3 4 5 10 11 12 13 14 15: 45.4 a.u.
2'F-ANA at 3 5 8 9 10 11 12 13 14 15: 51.5 a.u.
2'F-ANA at 1 9 12 13 14 15: 69.3 a.u.
2'F-ANA at 1 2 3 7 12 13: 407 a.u.
2'F-ANA at 1 2 6 7 9 11 15: 98.4 a.u.
2'F-ANA at 3 6 8 11 15: 876 a.u.
2'F-ANA at 1 2 5 6 9 10 11 12 13: 49.4 a.u.
2'F-ANA at 1 2 4 8 10 12 15: 71.6 a.u.
2'F-ANA at 1 3 5 6 7 9 10 13 14: 46.6 a.u.
2'F-ANA at 2 6 8 9 10 15: 117 a.u.
2'F-ANA at 1 2 3 4 5 6 7 8 9 13 14 15: 49.5 a.u.
2'F-ANA at 1 2 3 4 5 7 10 11 14 15: 48.9 a.u.
2'F-ANA at 2 3 5 7 8 9 12 13: 184 a.u.
2'F-ANA at 2 3 4 5 7 10 13 14 15: 48.4 a.u.
2'F-ANA at 6 7 9 10 13: 141 a.u.

Series 2 — method: RNA Bind-n-Seq; molecule type: RNA; medium: in vitro; tested at: 365 nM; relative to: no-protein control; direction: higher = stronger binding; quantity: RBNS enrichment (R)
Target: RNA binding protein fox-1 homolog 2, RRM domain, GST-SBP tag (RBFOX2, Homo sapiens, UniProt O43251-10, residues 100-194)
Notes: natural RNA segment, single round, ends assumed
Constant ends, left off below: GGGAGUUCUACAGUCCGACGAUC … UGGAAUUCUCGGGUGCCAA
Residues (chain): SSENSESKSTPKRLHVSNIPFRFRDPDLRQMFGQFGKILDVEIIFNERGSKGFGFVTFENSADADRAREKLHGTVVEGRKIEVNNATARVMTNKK
GGACCCAAGAGAGGAAAAGUUGUAGCUAAAUGUUGAUUUACUUAUAACUAGACGUCUAUGUGAGAAAAUAUAUGUAUACAUAUAUAUGAUAUGCAGAAGUCACUUUUUUU: 0.314
UAUGAGGUUACCUACAACUACUUAAUGUACUUACACUGUAAGCCUUGUUGCUUUACCCAAGACAAAUGUAAUUUUAUCAUUGCUUAUGUAGUAUUUUUCUUUUGGAAAUG: 0.363
AGAGAAGGUGUCUUUGGAGUUCACACAGCACACACUGUGCACAGAAGGCCUCCCCAUCUGGGAAAUAGAACUGGAUAUUUUGCCUCAUUCACUUGUACUGUAAUAGUGUA: 0.727
GUAUCACGUUUUCAGCCAUGUUGUGUAAGAGACCUGCUUUCAAGUGUGGUUGUAAAAGCAAGCCCAGGAAAGGUGACCUCAUUCUCACGGACUGUGCUGUGCAGCUUUCC: 0.474
UUAAGCAGUAUAGUAUUGGUUGGGUCAUUUGCAUCAUAUCGUUAGCAUUUAUUUGGUGGCAGAAUGUUUGCCUAGGUACAGAAUUAAUAGCCCUUAGCAACGACUGCUGC: 4.95
CUGCCUCUCCUUCCUCUCUGCAGCCCAAAUGGAAAACAAUUAUUUACUCCAUUGGAGGGAAAGGAAGAGUCUUAGAAUUCCUAAGGGAACCUUAGCAUAAAGGUUUUGGG: 0.575
GACAGUUAUGGUACACACAACGAUAAAAGCCCUCCGCGUCCAGAUCGUCCUUCCAUGGCUGUAAUUAAGAUGGGGGAGCUUCGCUGAUCGUUGUGUAGUGAGCACCUUGU: 0.594
AGAAAGCAGUUUUAGAAGGCCAUGACUCAAUUCUUAGGUUUGUAUGCUUAAACAUCUUAGGAAUUUUAAUAUAAAAAGAAAAGGCUUUCCCAUUUGCACUCUAUUUCAAA: 0.699

Series 3 — method: DHFR PCA, deep sequencing; medium: yeast; together with: (+)-ABA 1.4 µM; relative to: wild-type fitted maximum; direction: higher = stronger binding; quantity: relative binding score
Target: ABI1, truncated, D143A, DHFR fusion (Arabidopsis thaliana)
Notes: methotrexate growth selection, single substitutions
Starting sequence: PYL1, truncated, DHFR fusion (Arabidopsis thaliana); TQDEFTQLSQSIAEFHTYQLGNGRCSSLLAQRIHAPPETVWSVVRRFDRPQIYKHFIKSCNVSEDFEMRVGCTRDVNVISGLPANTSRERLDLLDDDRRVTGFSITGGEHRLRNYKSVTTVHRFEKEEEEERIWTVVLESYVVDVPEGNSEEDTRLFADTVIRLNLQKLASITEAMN; partner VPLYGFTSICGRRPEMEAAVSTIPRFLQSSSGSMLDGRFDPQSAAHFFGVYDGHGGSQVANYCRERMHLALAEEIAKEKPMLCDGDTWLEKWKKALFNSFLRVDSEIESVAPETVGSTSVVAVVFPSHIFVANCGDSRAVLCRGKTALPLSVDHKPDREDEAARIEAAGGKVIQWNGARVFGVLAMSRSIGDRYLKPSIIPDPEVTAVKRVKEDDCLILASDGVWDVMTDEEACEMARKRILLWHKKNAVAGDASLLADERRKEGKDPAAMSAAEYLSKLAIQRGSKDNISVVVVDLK
Y53P: -4.4%
K168L: 11.3%
E14A: 15.7%
F103R: -3.54%
F15I: -23.3%
S117C: 0.915%
D97K: 67.8%
E38D: 56.3%
G21E: 59.3%
H55M: 77.5%
L156N: 4.92%
R123H: 59.7%
A30C: 52.8%
T120Q: -0.214%
E130G: 59.6%
D65E: 44.8%
F66T: 26%
S59N: 41.8%
C72S: 51.9%
E109W: -6.21%

Series 4 — method: protein binding microarray; molecule type: double-stranded DNA, one strand shown; medium: in vitro; tested at: not given; relative to: not given; direction: higher = stronger binding; quantity: E-score
Target: Histone acetyltransferase KAT6A, winged helix 2, GST fusion (KAT6A, Homo sapiens, UniProt Q92794, residues 85-181)
Notes: 8-mer, flanks averaged, mean of 2 arrays, mostly near background
Construct (chain): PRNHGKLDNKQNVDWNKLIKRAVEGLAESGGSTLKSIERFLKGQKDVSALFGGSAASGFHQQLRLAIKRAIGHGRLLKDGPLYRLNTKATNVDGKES
ATAAGGTC: -0.0411
AGGAAATC: 0.103
GCCGTAGC: 0.132
ACGCTATG: -0.164
AAAGACTA: -0.0932
AGAGTGAG: -0.0428
CATGCTTC: 0.0716
TAGCAATA: 0.049
ACTTCGTC: 0.172
TTACAAAA: 0.0499
AGAAGAGA: -0.00624
GATGAATA: 0.0846
GAGTTAAC: -0.0246
GTTGTTAA: 0.00281
ATCATTGC: 0.00201
CATGTTAA: -0.134

Some of these lines once more (series 4):
AGGAAATC: 0.103
TAGCAATA: 0.049
ATAAGGTC: -0.0411
